Measurements from different studies.
Protocols differ between the studies behind these lines. “And” joins repeats or separate records; there may be more than shown. ± marks the error that the study gave.
ABCG2: Broad substrate specificity ATP-binding cassette transporter ABCG2 (ABCG2, Homo sapiens, UniProt Q9UNQ0)
UniProt Q9UNQ0, sequence (whole entry, looked up): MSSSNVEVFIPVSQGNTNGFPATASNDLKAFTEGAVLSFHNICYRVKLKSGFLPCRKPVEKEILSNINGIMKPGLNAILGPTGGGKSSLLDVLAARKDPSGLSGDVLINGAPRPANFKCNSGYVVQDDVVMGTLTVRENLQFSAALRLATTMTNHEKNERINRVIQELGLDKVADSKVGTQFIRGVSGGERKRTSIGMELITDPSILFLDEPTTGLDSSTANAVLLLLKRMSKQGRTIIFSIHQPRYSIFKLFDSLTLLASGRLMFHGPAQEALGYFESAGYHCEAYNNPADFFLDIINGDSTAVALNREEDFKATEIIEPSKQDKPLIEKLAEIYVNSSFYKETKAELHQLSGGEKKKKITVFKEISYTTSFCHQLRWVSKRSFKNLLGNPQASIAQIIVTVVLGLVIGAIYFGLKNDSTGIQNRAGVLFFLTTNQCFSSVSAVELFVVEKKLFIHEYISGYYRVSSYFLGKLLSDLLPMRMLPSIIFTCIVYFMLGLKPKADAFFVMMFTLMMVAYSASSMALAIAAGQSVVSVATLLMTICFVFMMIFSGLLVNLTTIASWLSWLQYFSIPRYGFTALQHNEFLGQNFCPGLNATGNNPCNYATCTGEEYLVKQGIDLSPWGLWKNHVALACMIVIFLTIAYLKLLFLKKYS
UniProt P00760, sequence (whole entry, looked up): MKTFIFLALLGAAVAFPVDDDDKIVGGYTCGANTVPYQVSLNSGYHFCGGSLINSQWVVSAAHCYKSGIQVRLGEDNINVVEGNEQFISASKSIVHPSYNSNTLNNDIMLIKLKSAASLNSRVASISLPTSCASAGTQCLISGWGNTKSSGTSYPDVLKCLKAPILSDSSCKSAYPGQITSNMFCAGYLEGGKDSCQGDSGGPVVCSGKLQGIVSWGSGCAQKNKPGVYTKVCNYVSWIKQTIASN
UniProt P11509, sequence (whole entry, looked up): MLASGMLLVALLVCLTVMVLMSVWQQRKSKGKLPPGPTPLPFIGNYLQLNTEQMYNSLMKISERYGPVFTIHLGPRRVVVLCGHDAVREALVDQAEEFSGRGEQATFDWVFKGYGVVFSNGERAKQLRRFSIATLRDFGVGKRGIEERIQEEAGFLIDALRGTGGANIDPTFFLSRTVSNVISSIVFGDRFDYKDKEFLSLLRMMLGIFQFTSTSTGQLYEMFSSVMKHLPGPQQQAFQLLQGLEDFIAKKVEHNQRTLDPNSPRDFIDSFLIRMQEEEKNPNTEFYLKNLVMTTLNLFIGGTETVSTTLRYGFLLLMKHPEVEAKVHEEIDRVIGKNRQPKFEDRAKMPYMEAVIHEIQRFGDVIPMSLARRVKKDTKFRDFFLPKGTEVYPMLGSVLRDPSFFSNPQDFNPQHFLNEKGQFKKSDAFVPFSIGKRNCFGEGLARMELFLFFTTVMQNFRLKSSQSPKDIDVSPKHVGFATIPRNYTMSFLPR
UniProt Q9NPD5, sequence (whole entry, looked up): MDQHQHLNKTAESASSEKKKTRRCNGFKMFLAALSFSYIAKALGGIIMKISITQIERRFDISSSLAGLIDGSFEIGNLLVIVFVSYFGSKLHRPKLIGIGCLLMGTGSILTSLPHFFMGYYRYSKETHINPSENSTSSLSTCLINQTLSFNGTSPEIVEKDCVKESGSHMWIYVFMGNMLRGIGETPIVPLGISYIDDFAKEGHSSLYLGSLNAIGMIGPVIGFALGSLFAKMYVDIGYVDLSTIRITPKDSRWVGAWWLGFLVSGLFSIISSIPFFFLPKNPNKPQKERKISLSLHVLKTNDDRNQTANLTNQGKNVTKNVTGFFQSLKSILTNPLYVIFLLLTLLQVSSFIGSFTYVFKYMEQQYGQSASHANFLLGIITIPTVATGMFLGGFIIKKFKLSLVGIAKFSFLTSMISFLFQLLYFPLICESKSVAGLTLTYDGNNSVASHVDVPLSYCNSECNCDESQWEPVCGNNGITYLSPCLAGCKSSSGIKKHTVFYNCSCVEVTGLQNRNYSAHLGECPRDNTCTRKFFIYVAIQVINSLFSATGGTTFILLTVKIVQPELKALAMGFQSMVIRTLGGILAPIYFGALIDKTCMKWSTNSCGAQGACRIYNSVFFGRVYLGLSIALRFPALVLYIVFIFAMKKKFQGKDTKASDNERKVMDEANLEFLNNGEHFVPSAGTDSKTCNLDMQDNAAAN

SMILES | tested on | assay | test system | conditions | scale | endpoint | value
COc1cc2nccc(Oc3ccc(NC(=O)Nc4ccc(C=C5CCNCC5)cc4)c(F)c3)c2cc1OC | Plasmodium falciparum | – | HepG2, 3D7 | – | reference: HepG2 CC50 over P. falciparum EC50 | selectivity index | 18 fold
O=C(O[C@@H]1Cc2c(O)cc(O)cc2O[C@@H]1c1cc(O)c(O)c(O)c1)c1cc(O)c(O)c(O)c1 | Caco-2 | – | PBS | concentration not given, 1 h, after 3 h loading | reference: accumulated | cellular retention | 56.8 ± 0.81%
CCN(CC)C(=O)COC(=O)c1c(NC(C)=O)sc2c1CCCC2 | Trypanosoma brucei | viability, flow cytometry | bloodstream form | 24 h | – | EC50 | ~20 µM
CCCCCCCCCCN | Oncorhynchus mykiss | liver S9 substrate depletion | pooled rainbow trout liver S9 | pH 7.8, tested individually | – | intrinsic clearance in vitro | 0.139 mL/h/mg S9 protein
C=CC(=O)N1CCC([C@@H]2CCNc3c(C(N)=O)c(-c4ccc(Oc5ccccc5)cc4)nn32)CC1 | Solute carrier organic anion transporter family member 1B3 (SLCO1B3, Homo sapiens, UniProt Q9NPD5) | transport, measured: estradiol-17β-glucuronide uptake | HEK293 transfected | 5 µM | reference: vehicle | remaining activity | 74.1 ± 10%
COc1ccccc1-c1cc2nc(-c3ccccc3)cc(N3CCN(C(=O)c4ccoc4)CC3)n2n1 | ABCG2 | JC-1 dye efflux, inhibitor, flow cytometry | ABCG2-overexpressing cells | added: JC-1 1 µM | – | IC50 | 0.45 ± 0.17 µM
C=C(C[C@H](N)C(=O)O)C(=O)NCc1ccc([N+](=O)[O-])cc1 | MCF-10A | necrosis | – | 24 h | – | EC50 | > 316 µM
O=C(c1ccoc1)N1CCN(c2cc(-c3ccc(F)cc3)nc3cc(-c4ccccc4)nn23)CC1 | ABCG2 | JC-1 dye efflux, inhibitor, flow cytometry | ABCG2-overexpressing cells | added: JC-1 1 µM | – | IC50 | 6.45 µM
CCCCCCCCCCCCNC | Oncorhynchus mykiss | liver S9 substrate depletion | rainbow trout liver S9 | tested individually | – | intrinsic clearance in vivo | 84 mL/h/g liver
O=C(c1ccccc1)N1CCN(c2cc(-c3ccccc3)nc3cc(-c4cccc(Cl)c4)nn23)CC1 | ABCG2 | JC-1 dye efflux, inhibitor, flow cytometry | ABCG2-overexpressing cells | added: JC-1 1 µM | – | IC50 | 1.45 ± 0.59 µM
CCCCCCCCCN | Oncorhynchus mykiss | liver S9 substrate depletion | pooled rainbow trout liver S9 | pH 7.8, tested individually | – | intrinsic clearance in vitro | 0.078 mL/h/mg S9 protein
NC(=O)C1CCN(c2ccc(C(=O)N3CCc4ccccc43)cn2)C1 (stereo not drawn) | Trypanosoma brucei | viability, flow cytometry | bloodstream form | 24 h | – | EC50 | > 25 µM
O=S(=O)(c1ccccc1)N1CCN(c2cc(-c3ccccc3)nc3cc(-c4cccc(Cl)c4)nn23)CC1 | ABCG2 | JC-1 dye efflux, inhibitor, flow cytometry | ABCG2-overexpressing cells | added: JC-1 1 µM | – | IC50 | > 50 µM
Cn1c(-c2ccc(C(N)=O)cc2F)nnc1C(C)(C)Oc1c(F)cc(Cl)cc1F | – | – | healthy young Japanese subjects, plasma | oral, 10 mg once daily, day 18, 14 days dosing | – | Cmax mean | 171 ng/mL
CC[C@H](C)[C@H](NC(=O)[C@H](CCC(=O)O)NC(=O)[C@H](CO)NC(=O)[C@@H](NC(=O)[C@@H](N)CO)C(C)C)C(=O)N[C@@H](CCC(N)=O)C(=O)N[C@@H](CC(C)C)C(=O)N[C@@H](CCSC)C(=O)N[C@@H](Cc1cnc[nH]1)C(=O)N[C@@H](CC(N)=O)C(=O)N[C@@H](CC(C)C)C(=O)NCC(=O)N[C@@H](CCCCN)C(=O)N[C@@H](Cc1cnc[nH]1)C(=O)N[C@@H](CC(C)C)C(=O)N[C@@H](CC(N)=O)C(=O)N[C@@H](CO)C(=O)N[C@@H](CCSC)C(=O)N[C@@H](CCC(=O)O)C(=O)N[C@@H](CCCN=C(N)N)C(=O)N[C@H](C(=O)N[C@@H](CCC(=O)O)C(=O)N[C@@H](Cc1c[nH]c2ccccc12)C(=O)N[C@@H](CC(C)C)C(=O)N[C@@H](CCCN=C(N)N)C(=O)N[C@@H](CCCCN)C(=O)N[C@@H](CCCCN)C(=O)N[C@@H](CC(C)C)C(=O)N[C@@H](CCC(N)=O)C(=O)N[C@@H](CC(=O)O)C(=O)N[C@H](C(=O)N[C@@H](Cc1cnc[nH]1)C(=O)N[C@@H](CC(N)=O)C(=O)N[C@@H](Cc1ccccc1)C(=O)O)C(C)C)C(C)C | Serine protease 1 (PRSS1, Bos taurus, UniProt P00760) | substrate, HPLC-UV | Tris buffer | 60 min, pH 6.5, 37 °C, added: bovine trypsin 0.5 mg, no SBTI | – | remaining intact compound | 0%
Oc1ccc(/C=C/c2cc(O)cc(O)c2)cc1 | Drosophila melanogaster | wing spot test | standard cross, wings | oral, concentration not given | – | small single spots per fly | 0.53 Spots per Fly and 0.58 Spots per Fly and 0.47 Spots per Fly
CCCCCCCCCCCCCCCCN(C)C | Oncorhynchus mykiss | liver S9 substrate depletion | rainbow trout liver S9 | tested individually | – | intrinsic clearance in vivo | 105 mL/h/g liver
O=C(c1ccsc1)N1CCN(c2cc(-c3ccccc3)nc3cc(-c4cccc(Cl)c4)nn23)CC1 | ABCG2 | JC-1 dye efflux, inhibitor, flow cytometry | ABCG2-overexpressing cells | added: JC-1 1 µM | – | IC50 | 1.4 ± 0.32 µM
CCCCCCCCCCCC(=O)OCCN | Oncorhynchus mykiss | liver S9 substrate depletion | pooled rainbow trout liver S9 | pH 7.8, tested individually | – | intrinsic clearance in vitro | 2.35 mL/h/mg S9 protein
CC(=O)N1CCN(c2cc(-c3ccccc3)nc3cc(-c4cccc(Cl)c4)nn23)CC1 | ABCG2 | JC-1 dye efflux, inhibitor, flow cytometry | ABCG2-overexpressing cells | added: JC-1 1 µM | – | IC50 | 6.07 ± 0.73 µM
CCCCCCCCCCNC | Oncorhynchus mykiss | liver S9 substrate depletion | rainbow trout liver S9 | tested individually | – | intrinsic clearance in vivo | 51 mL/h/g liver
O=C1CC(c2ccccc2)Oc2ccccc21 (stereo not drawn) | Cytochrome P450 2A6 (CYP2A6, Homo sapiens, UniProt P11509) | substrate, measured: 4'-hydroxy metabolite formation | – | reconstituted system | – | Km | 13 µM
O=C(c1ccoc1)N1CCN(c2cc(-c3ccccc3F)nc3cc(-c4cccc(Cl)c4)nn23)CC1 | ABCG2 | JC-1 dye efflux, inhibitor, flow cytometry | ABCG2-overexpressing cells | added: JC-1 1 µM | – | IC50 | 1.93 ± 0.48 µM
CCCCCCCCCCCC[N+](C)(C)Cc1ccccc1 | Oncorhynchus mykiss | liver S9 substrate depletion | pooled rainbow trout liver S9 | pH 7.8, tested individually | – | intrinsic clearance in vitro | 0.142 mL/h/mg S9 protein
O=C(c1cccc(Cl)c1)N1CCN(c2cc(-c3ccccc3)nc3cc(-c4cccc(Cl)c4)nn23)CC1 | ABCG2 | JC-1 dye efflux, inhibitor, flow cytometry | ABCG2-overexpressing cells | added: JC-1 1 µM | – | IC50 | 2.95 ± 0.57 µM
CCCCCCCCCCCCCCN(C)C | Oncorhynchus mykiss | liver S9 substrate depletion | rainbow trout liver S9 | tested individually | – | intrinsic clearance in vitro | 1.29 mL/h/mg S9 protein
C=C(C[C@H](N)C(=O)O)C(=O)Nc1ccc(Cl)cc1 | MCF-10A | necrosis | – | 24 h | – | EC50 | > 316 µM

Repeated from above:
SMILES | tested on | assay | test system | conditions | scale | endpoint | value
CCCCCCCCCCCCCCCCN(C)C | Oncorhynchus mykiss | liver S9 substrate depletion | rainbow trout liver S9 | tested individually | – | intrinsic clearance in vivo | 105 mL/h/g liver
O=C(c1ccsc1)N1CCN(c2cc(-c3ccccc3)nc3cc(-c4cccc(Cl)c4)nn23)CC1 | ABCG2 | JC-1 dye efflux, inhibitor, flow cytometry | ABCG2-overexpressing cells | added: JC-1 1 µM | – | IC50 | 1.4 ± 0.32 µM
CCCCCCCCCCCC(=O)OCCN | Oncorhynchus mykiss | liver S9 substrate depletion | pooled rainbow trout liver S9 | pH 7.8, tested individually | – | intrinsic clearance in vitro | 2.35 mL/h/mg S9 protein
